# Assay results of several laboratories.
# Compare with care: the assays were run in different laboratories. ± marks the error that the study gave.
# HTR2C: 5-hydroxytryptamine receptor 2C (HTR2C, Homo sapiens, UniProt P28335)
# Sequence of UniProt P28335 (whole entry, looked up): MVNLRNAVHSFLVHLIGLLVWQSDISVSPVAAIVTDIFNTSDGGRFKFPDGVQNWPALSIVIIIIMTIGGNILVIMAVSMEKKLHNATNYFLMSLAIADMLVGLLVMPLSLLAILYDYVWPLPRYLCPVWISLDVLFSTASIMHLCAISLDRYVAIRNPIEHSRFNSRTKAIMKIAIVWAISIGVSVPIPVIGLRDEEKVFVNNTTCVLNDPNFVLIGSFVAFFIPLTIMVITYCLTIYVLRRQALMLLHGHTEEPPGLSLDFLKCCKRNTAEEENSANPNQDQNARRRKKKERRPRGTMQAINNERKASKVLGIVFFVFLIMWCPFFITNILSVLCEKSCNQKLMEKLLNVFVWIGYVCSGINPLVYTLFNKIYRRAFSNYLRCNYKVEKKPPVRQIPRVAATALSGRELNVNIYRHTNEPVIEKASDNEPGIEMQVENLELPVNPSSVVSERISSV
# Vesicular acetylcholine transporter: Vesicular acetylcholine transporter (Rattus norvegicus, UniProt Q62666)
# Sequence of UniProt Q62666 (whole entry, looked up): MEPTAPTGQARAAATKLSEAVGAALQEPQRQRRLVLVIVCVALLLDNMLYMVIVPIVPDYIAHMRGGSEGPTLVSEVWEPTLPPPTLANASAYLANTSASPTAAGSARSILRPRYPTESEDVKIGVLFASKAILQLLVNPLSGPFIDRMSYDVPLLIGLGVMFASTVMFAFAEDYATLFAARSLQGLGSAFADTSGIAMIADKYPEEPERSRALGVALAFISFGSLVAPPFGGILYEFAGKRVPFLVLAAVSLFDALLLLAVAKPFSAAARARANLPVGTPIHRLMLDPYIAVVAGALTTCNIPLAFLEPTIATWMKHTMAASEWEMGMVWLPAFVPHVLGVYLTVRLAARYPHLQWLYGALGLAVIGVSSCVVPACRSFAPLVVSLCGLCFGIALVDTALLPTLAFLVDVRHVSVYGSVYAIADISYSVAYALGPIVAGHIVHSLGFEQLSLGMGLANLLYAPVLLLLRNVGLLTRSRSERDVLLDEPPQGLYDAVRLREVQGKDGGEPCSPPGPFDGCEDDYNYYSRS
# Sequence of UniProt Q5BJF2 (whole entry, looked up): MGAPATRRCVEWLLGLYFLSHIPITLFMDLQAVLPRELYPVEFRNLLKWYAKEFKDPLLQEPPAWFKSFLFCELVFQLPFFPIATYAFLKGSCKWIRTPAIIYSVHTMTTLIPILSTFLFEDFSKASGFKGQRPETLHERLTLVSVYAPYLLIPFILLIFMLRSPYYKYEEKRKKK
# Sequence of UniProt Q9JJ73 (whole entry, looked up): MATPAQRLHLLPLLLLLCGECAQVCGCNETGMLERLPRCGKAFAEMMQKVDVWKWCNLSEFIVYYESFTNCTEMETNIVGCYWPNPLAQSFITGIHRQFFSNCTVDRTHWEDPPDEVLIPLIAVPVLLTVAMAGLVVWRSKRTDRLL
# Sequence of UniProt P16257 (whole entry, looked up): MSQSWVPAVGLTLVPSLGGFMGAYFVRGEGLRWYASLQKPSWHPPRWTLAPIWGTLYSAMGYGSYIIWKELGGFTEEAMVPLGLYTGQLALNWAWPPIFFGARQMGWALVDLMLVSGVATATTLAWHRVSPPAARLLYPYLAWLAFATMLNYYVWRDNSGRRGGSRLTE
# Sequence of UniProt P32214 (whole entry, looked up): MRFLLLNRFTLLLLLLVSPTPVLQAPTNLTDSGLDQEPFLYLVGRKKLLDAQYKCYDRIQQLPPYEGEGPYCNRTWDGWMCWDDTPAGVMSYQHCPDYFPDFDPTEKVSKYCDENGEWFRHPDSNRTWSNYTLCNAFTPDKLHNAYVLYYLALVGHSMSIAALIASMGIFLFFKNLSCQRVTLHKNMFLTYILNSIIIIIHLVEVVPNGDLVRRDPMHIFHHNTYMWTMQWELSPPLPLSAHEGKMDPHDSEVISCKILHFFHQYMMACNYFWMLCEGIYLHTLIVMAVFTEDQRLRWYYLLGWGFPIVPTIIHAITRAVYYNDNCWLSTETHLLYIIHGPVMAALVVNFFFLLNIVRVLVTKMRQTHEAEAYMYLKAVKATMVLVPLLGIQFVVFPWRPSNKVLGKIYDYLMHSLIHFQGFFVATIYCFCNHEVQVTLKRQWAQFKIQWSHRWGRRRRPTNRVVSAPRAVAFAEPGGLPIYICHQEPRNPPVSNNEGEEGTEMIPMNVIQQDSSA
# Sequence of UniProt O60930 (whole entry, looked up): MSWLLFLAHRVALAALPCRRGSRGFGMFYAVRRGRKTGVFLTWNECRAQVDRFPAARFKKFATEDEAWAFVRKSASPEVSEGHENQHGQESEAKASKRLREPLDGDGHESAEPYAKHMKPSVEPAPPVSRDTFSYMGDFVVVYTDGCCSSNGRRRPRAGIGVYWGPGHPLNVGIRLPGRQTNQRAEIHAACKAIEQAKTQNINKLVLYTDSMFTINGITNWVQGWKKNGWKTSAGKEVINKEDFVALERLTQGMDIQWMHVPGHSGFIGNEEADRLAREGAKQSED
SMILES,target,assay,system,setting,Ki [µM]
Cn1ccc2c(N3CCN(CCCCOc4ccc5c(c4)NC(=O)CC5)CC3)cccc21,HTR2C,"ligand displacement, radioligand",,,0.2
Cc1cc(O)c(=O)c(O)cc1C(=O)N1CCN(C(=O)c2cccc3ccccc23)CC1,"Ribonuclease H1 (Homo sapiens, UniProt O60930)","enzyme activity, inhibitor, FRET cleavage",,"catalytic domain, enzyme binding",27.1
CNc1nc(SCc2ccccc2)nc2c1ncn2[C@H]1[C@H](O)[C@H](O)[C@]2(CO)C[C@H]12,HTR2C,"ligand displacement, radioligand",,,0.06
CC(C)C[C@H](NC(=O)[C@H](CCCN)NC(=O)CNC(=O)[C@@H](NC(=O)[C@H](C)NC(=O)[C@@H]1CSCSC[C@H](NC(=O)CC[C@H](N)C(=O)O)C(=O)N[C@@H](CC(N)=O)C(=O)N[C@@H]([C@@H](C)O)C(=O)N[C@@H](C)C(=O)N[C@@H]([C@@H](C)O)C(=O)N1)[C@@H](C)O)C(=O)N[C@@H](C)C(=O)N[C@@H](CCC(=O)O)C(=O)N[C@@](C)(Cc1ccccc1)C(=O)N[C@@H](CC(C)C)C(=O)N[C@H](C(=O)N[C@@H](CCCNC(=N)N)C(=O)N[C@@H](CO)C(=O)N[C@@H](CO)C(=O)N[C@@H](CC(N)=O)C(=O)N(C)[C@@H](CC(N)=O)C(=O)N[C@@H](Cc1ccccc1)C(=O)NCC(=O)N1CCC[C@H]1C(=O)N[C@@H](CCCCNC(=O)CC[C@H](NC(=O)CC[C@H](NC(=O)CCCCCCCCCCCCCCCCCCC(=O)O)C(=O)O)C(=O)O)C(=O)N[C@@H](CC(C)C)C(=O)N1CCC[C@H]1C(=O)N1CCC[C@H]1C(=O)N[C@H](C(=O)N[C@@H](CCC(=O)O)C(=O)N[C@H](C(=O)NCC(=O)N[C@@H](CO)C(=O)N[C@@H](CC(N)=O)C(=O)N[C@H](C(=O)N[C@@H](Cc1ccc(O)cc1)C(N)=O)[C@@H](C)O)C(C)C)[C@@H](C)O)C(C)C,"Amylin receptor AMY3; CALCR/RAMP3 (Rattus norvegicus, UniProt P32214+Q9JJ73)","ligand displacement, radioligand",,cell membranes,0.000161
CNC(=O)C12CC1C(n1cnc3c(NC)nc(C#Cc4ccccc4Cl)nc31)C(O)C2O (stereo not shown),"Tspo (Rattus norvegicus, UniProt P16257)",binding,,PDSP off-target screen,0.48
Cc1ccc(C2CCN(C3CCCCC3O)CC2)cc1 (racemic),Vesicular acetylcholine transporter,radioligand binding,PC12 expressing VAChT,with: [3H]vesamicol,0.52 ± 0.06
CC(C)(C)n1nc(-c2ccc(Cl)cc2)c2c(N)ncnc21,"SRC (Gallus gallus, UniProt P00523, K249E/P250E/Y527F)","enzyme activity, inhibitor",,,0.043
CCc1c(Cl)cccc1N1CCN(C[C@H](F)CCNC(=O)c2cc3ccccc3[nH]2)CC1,HTR2C,"ligand displacement, radioligand",,cell membranes,1.83
CC(=O)N[C@@H](CC(C)C)C(=O)N[C@@H](CC(C)C)C(=O)N[C@@H](CC(C)C)C(=O)N[C@@H](CC(C)C)C(=O)N[C@@H](CC(C)C)C(=O)N[C@@H](CC(C)C)C(=O)N[C@@H](CCCNC(=N)N)C(=O)N[C@H](C(=O)N[C@@H](CCCCN)C(=O)N[C@@H](CCCNC(=N)N)C(N)=O)C(C)C,proprotein convertase 1/3 (human),inhibitor,,,1.7 ± 0.6
O[C@@H]1Cc2cccc(OCCF)c2C[C@H]1N1CCC(c2ccccc2)CC1,Vesicular acetylcholine transporter,radioligand binding,PC12 expressing VAChT,with: [3H]vesamicol,0.0059 ± 0.0004
CC(=O)N[C@@H](CC(C)C)C(=O)N[C@@H](CCCNC(=N)N)C(=O)N[C@H](C(=O)N[C@@H](CCCCN)C(=O)N[C@@H](CCCNC(=N)N)C(N)=O)C(C)C,proprotein convertase 1/3 (human),inhibitor,,,0.86 ± 0.9
C[C@]12COc3ccc(OCc4ccc(C(F)(F)F)cc4)cc3[C@H]1CCN2,"TMEM97 (Homo sapiens, UniProt Q5BJF2)","cell-free assay, radioligand",,,0.011
OC1CCCCC1N1CCC(c2ccc(Br)cc2)CC1 (racemic),Vesicular acetylcholine transporter,radioligand binding,PC12 expressing VAChT,with: [3H]vesamicol,0.27 ± 0.02

# A few entries again:
SMILES,target,assay,system,setting,Ki [µM]
Cc1ccc(C2CCN(C3CCCCC3O)CC2)cc1 (racemic),Vesicular acetylcholine transporter,radioligand binding,PC12 expressing VAChT,with: [3H]vesamicol,0.52 ± 0.06
CNC(=O)C12CC1C(n1cnc3c(NC)nc(C#Cc4ccccc4Cl)nc31)C(O)C2O (stereo not shown),"Tspo (Rattus norvegicus, UniProt P16257)",binding,,PDSP off-target screen,0.48
